Experimental data of several laboratories.
A part holds a random share of what one study measured. Substitutions count along the parent as printed.

Block 1
Target: RING finger protein unkempt homolog, zinc fingers 1-6, GST-SBP tag (UNK, Homo sapiens, UniProt Q9C0B0, residues 30-357)
Sequence of UniProt Q9C0B0 (30-357, looked up): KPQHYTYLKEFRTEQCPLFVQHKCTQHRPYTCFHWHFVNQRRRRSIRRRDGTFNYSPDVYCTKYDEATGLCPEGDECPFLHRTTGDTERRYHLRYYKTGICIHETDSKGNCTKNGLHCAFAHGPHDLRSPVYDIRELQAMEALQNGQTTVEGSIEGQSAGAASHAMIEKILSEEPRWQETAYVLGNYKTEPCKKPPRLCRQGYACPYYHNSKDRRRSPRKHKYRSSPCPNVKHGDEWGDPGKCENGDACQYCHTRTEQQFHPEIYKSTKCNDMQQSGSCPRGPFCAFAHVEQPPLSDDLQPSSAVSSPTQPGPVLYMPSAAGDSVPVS
Method: RNA Bind-n-Seq
Form: RNA
Sample: in vitro
Tested at: not given
Setting: RNA with constant flanks, human and mouse sites, ends assumed
Baseline: input RNA pool
Direction: higher = stronger binding
For `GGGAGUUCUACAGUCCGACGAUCGAUUAUUUAUUCAAGUUACUUCUGAUUGGCGACUCAGGGGUUGGAAAGUCUUGCCUUCUUCUUAGGUUUGCAUGGGACACAGCAGGCCAGGAAAGAUUUCGAACAAUCACCUCCAGUUAUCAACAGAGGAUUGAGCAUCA`, the bound/input enrichment was 0.55 ratio.
`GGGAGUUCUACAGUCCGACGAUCACAGGGUCAGAUGAUUACACAAAUUUGGUUGGAGCAUUUGUAUGCCAGUCAACUAUUAUUCCUUCUGAAAGUAAGGGCUUCCGGGCAGCCCUGUCGUCACAGUCUAUCAUUCUGGCAGAUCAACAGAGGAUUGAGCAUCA` has a bound/input enrichment of 0.248 ratio.
For `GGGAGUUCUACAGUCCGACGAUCAGCUCCAGUUUGGCGGUUGUGGAUUUAAUUGACGCCAUCCAACCAGGCUGCAUUAACUAUGACCUUGUGAAGAGUGGGAAUCUAACAGAAGAUGACAAGCACAAUAACGCCAAGUACGCACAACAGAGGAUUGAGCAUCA`, the bound/input enrichment was 0.173 ratio.
`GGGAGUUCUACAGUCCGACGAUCGCUGCGGGGCUGGGGCUGGGGCUACCCGCCGCGGACUCCCGGGGUCACUACCAGCUGCUGCUGUCAGGCCGGGCCCUGGCCGACCGCUACCGGAGGAUUUAUACCGCUGCGCUCAAUGACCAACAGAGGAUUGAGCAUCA` gave a bound/input enrichment of 0.171 ratio.
For `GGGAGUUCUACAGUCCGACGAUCAACGCUUCCGUGAGACUUGACAAUAGCUCUGGUGCAAGUGUGGUAGCUAUCGACAACAAAAUAGAGCAAGCUAUGGAUCUGGUGAAAAGCCAUUUGAUGUAUGCGGUGAGGGAGGAAGUGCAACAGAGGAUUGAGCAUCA`, the bound/input enrichment was 0.517 ratio.

Block 2
Target: Sal-like protein 4, full length isoform A (SALL4, Homo sapiens, UniProt Q9UJQ4, residues 1-1053)
Sequence of UniProt Q9UJQ4 (whole entry, looked up): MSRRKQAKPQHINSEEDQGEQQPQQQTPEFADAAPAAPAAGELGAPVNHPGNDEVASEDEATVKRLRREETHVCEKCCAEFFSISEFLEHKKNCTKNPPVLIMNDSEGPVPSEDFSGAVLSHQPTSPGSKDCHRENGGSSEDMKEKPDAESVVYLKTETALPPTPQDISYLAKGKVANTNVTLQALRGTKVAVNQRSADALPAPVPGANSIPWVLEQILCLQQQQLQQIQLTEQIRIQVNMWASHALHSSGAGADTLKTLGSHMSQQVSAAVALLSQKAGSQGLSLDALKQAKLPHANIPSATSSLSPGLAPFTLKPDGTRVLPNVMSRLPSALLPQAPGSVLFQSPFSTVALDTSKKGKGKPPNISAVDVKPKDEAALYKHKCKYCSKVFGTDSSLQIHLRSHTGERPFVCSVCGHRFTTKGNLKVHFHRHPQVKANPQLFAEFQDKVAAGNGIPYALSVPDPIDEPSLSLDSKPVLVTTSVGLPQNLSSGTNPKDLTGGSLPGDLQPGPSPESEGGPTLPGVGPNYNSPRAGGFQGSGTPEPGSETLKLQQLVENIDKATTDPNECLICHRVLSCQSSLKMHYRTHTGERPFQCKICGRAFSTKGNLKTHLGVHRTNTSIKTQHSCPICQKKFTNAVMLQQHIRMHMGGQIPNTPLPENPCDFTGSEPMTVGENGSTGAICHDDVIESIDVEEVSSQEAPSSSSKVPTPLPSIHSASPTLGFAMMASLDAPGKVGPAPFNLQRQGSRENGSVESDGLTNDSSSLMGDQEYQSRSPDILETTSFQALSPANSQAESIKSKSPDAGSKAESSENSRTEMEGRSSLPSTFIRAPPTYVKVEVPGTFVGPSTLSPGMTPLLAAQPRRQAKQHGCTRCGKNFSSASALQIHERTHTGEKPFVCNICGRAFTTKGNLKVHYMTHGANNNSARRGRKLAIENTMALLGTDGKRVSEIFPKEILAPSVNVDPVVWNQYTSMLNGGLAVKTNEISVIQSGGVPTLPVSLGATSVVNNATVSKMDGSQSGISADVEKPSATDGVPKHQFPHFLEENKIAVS
Method: universal PBM
Form: double-stranded DNA, one strand shown
Sample: in vitro
Tested at: 600 nM
Setting: 8-mer, flanks averaged, mean of replicates
Direction: higher = stronger binding
`CTGCTAAG` gave an E-score of -0.124.
`ACTGCGCG` gave an E-score of -0.264.
For `GGACTGAA`, the E-score was 0.0182.
`AGCGCGTC` gave an E-score of -0.297.
`ATTAGCCG` gave an E-score of -0.0191.
`GTAGTTGA` has an E-score of 0.151.
The E-score of `ACATTAAC` is reported as 0.222.
The E-score of `ACGCTTGC` is reported as -0.127.
With `TCCGATAA` the E-score was 0.112.
The E-score of `ACATCCCA` is reported as -0.152.
`CAGCGGAC` has an E-score of -0.186.
`CTCAGAAC` gave an E-score of -0.0148.
The E-score of `GAAACCCA` is reported as 0.0105.
With `CTGTGCGC` the E-score was -0.316.
With `AGCACCAA` the E-score was 0.0479.
`CACCGTGC` gave an E-score of -0.159.
With `ACTATAGT` the E-score was 0.31.
`AATCCGCA` has an E-score of -0.0785.
`ACCCTAAT` gave an E-score of 0.0722.
`CTCGATCC` has an E-score of -0.171.
`TACATCGA` has an E-score of 0.0759.
`GTACCACA` has an E-score of 0.117.
`TAGACGCA` has an E-score of 0.104.
For `CTCGTGCA`, the E-score was 0.0344.

Block 3
Target: RNA binding protein fox-1 homolog 2, RRM domain, GST-SBP tag (RBFOX2, Homo sapiens, UniProt O43251-10, residues 100-194)
Method: RNA Bind-n-Seq
Form: RNA
Sample: in vitro
Tested at: 365 nM
Setting: natural RNA segment, single round, ends assumed
Baseline: no-protein control
Direction: higher = stronger binding
Construct (chain): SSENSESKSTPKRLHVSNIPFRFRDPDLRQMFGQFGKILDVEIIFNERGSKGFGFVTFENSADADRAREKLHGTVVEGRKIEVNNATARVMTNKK
Under “RBNS enrichment (R)”, `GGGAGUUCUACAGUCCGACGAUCUGUCUUAAAUACUUUAAUGUUGGAAGAGCAUAGUGUUUGGGCUAGUGGGUUUCUGACAGCCCAUGGGAAUGCCCUGAAACUACUGUAUCUGAUGUUUGUUUUCGAUGAGGUGGAAUUCUCGGGUGCCAA` is recorded as 0.451.
`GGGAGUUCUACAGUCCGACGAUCGGGAACAUUAUGUAUAUUGACCUUAAACAUAGGUGUCCUAUAUUUGGAUUGUGACUUGUAGACUCAAGCUAACCUUACUGCCUCUUUUUCACACUUGUUGAAAAGUCUGUUGGAAUUCUCGGGUGCCAA` — result for “RBNS enrichment (R)”: 0.505.
Under “RBNS enrichment (R)”, `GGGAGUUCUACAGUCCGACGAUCUUGUUUUCAUUGUUUGCAGCGGAUCACUGGACAUCAAAGAUUCAUUGCACUUAUGAACAAGGAACCUUCUUUUCAAUUUCUGUGUAAUUUGCAAGGCUGUACAAUGUGUGUGGAAUUCUCGGGUGCCAA` is recorded as 0.659.
Under “RBNS enrichment (R)”, `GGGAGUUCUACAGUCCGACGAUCUAACUAUAAAUCUGGCUAUUUCUUCAUCCAGUAACCUAAAUAUGAUAUAUACUUUAUAUUGGGUAUGAGAGAUCUGUGUUUGGGUUUUAUAGAUUUUAGCUUUUGACACGUGGAAUUCUCGGGUGCCAA` is recorded as 0.343.
Under “RBNS enrichment (R)”, `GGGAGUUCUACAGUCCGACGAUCGAGGGACUGAGUGGCCCGCGGGCCCCAGUGAGGCACUUUGUCCCGCCCAGCGCUGGCCAGCCCCGAGGAGCCGCUGCCUUCACCGCCCCGACGCCUUUUAUCCUUUUUUAUGGAAUUCUCGGGUGCCAA` is recorded as 0.572.
`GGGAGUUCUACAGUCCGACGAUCACUGUCCCAAAUCUGGAAGGUCCAGAGUAAGCAGGAUUCAGGGAGAGGGAGUGGAUAGCAAGUAUCCCAAGAAACCAACCUGUAAGUCAGGUCCAGCCAGUCCAAGCACAUGGAAUUCUCGGGUGCCAA` — result for “RBNS enrichment (R)”: 2.31.
`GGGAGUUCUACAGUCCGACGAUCAAAGAGUAGGACAGAAGAGCGGCGCACACCUGCAGAUGUUCUGCAAGCCUUGCGGUCCAGAUGAGCAUGCCGGAAGGUUUCCUCAUGUAGCGUUCCCACUGGAGCUGUGUUGGAAUUCUCGGGUGCCAA`: “RBNS enrichment (R)” 0.346.
Under “RBNS enrichment (R)”, `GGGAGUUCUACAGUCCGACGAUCGUGGAUAUCUGCUUCCAUGACAGAACCUCUUGAGCACGCAGAGGGAGUGGCCACACCGCCUGUUGGAGAGGUCACUGAAAAAGACAUCACUGCAGAAGCAACUCCUGCACUGGAAUUCUCGGGUGCCAA` is recorded as 8.96.
For `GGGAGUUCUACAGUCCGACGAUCUACUGACAAAUAUGUAUUUCCUAUAUGUUUAUACUUUGAUUAUAAAAAAGUAUUUUGUUUUGAUUUUUUAACUUGCUGCAUUGUUUUGAUACUUUCUAUUUUUUUGGUCAUGGAAUUCUCGGGUGCCAA`, “RBNS enrichment (R)” read 3.87.
Under “RBNS enrichment (R)”, `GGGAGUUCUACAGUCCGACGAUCGAAGUAUAUUUGAGCCAGAGGAAUGUGGCUUCCAAUCAAGUUUGUAGGAGUGGACCCUGCCACUGGCCCCAUCGGAGCCGGAAAGCCAAGGAGGAAGGGACAGAGCUAGAUGGAAUUCUCGGGUGCCAA` is recorded as 0.898.
For `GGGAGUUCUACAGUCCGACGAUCAUUAAAUAUUGGUUCAUUUUUUUUCCAUGUUGUGGAGACACCAAGAUGAACGCAGCAUGAAUCUCAUUUCCAUUUCUAAGCAGCUGGGUGGUGCGGCGAUUCUUUAGUUCUGGAAUUCUCGGGUGCCAA`, “RBNS enrichment (R)” read 1.8.
Under “RBNS enrichment (R)”, `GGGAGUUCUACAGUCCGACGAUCAAUUAUUGAAAUCCAUUUGCACCCUGUUAAGAAUGGACUUAAAAGUACUGCUGGACAGGCAUGUGUGCUCAAAGUACAUUGAUUGCUCAAAUAUAAGGAAAUGGCCCAAUUGGAAUUCUCGGGUGCCAA` is recorded as 2.25.

Block 4
Target: CCND3, cyclin fold, Cln2 fusion (human)
Method: yeast growth competition, sequencing
Sample: yeast
Setting: weak parent motif
Baseline: not given
Direction: higher = stronger binding
Starting sequence: GMNC docking peptide (human); KNAKRNLSSEFAN
`KNAKRNMSSEFAN [L7M]` — result for “normalised enrichment score”: 0.0446.
Under “normalised enrichment score”, `KNAKLNLSSEFAN [R5L]` is recorded as 0.0215.
`KNAHRNLSSEFAN [K4H]`: “normalised enrichment score” -0.0523.
`KNAKRNLSSEHAN [F11H]` — result for “normalised enrichment score”: 0.129.
`KNSKRNLSSEFAN [A3S]`: “normalised enrichment score” 0.329.
Under “normalised enrichment score”, `KNAKRNLSSRFAN [E10R]` is recorded as 0.501.
`KNAKRILSSEFAN [N6I]` — result for “normalised enrichment score”: 0.203.
For `KNAKRNLESEFAN [S8E]`, “normalised enrichment score” read -0.21.
Under “normalised enrichment score”, `KPAKRNLSSEFAN [N2P]` is recorded as 0.393.
Under “normalised enrichment score”, `KNAKRNDSSEFAN [L7D]` is recorded as 0.922.
`KNWKRNLSSEFAN [A3W]` — result for “normalised enrichment score”: 0.577.
Under “normalised enrichment score”, `KNAKRNLSSEFTN [A12T]` is recorded as 0.123.

Block 5
Target: Interferon regulatory factor 7, full length, phosphomimetic (IRF7, Homo sapiens, UniProt Q92985, residues 1-503, S471D/S472D/S475D/S476D/S477D/S483D/S484D/S487D)
Method: protein-binding microarray
Form: double-stranded DNA, one strand shown
Sample: in vitro
Tested at: 2200 nM top
Setting: 60-bp whole probe
Added: salmon DNA 0.4 mg/ml
Baseline: random background probes
Direction: higher = stronger binding
Shared flanks, not repeated: GCCTAGCAC … GTCTTGATTCGCTTGACGCTGCTG
Residues (chain): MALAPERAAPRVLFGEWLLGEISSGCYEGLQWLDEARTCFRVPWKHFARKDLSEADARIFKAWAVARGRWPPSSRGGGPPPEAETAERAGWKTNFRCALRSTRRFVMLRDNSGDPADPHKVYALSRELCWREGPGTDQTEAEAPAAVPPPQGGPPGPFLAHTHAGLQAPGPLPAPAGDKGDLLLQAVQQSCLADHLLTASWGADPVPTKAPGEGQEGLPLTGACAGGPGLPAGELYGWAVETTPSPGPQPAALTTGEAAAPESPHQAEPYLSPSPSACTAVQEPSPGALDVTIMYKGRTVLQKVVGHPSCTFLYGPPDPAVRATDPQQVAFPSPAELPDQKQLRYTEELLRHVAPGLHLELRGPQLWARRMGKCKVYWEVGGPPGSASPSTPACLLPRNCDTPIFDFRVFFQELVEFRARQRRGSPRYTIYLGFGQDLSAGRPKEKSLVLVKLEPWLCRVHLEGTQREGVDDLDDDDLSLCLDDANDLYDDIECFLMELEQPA
For `GACGATTTCTGGTTTCGAGACGTGCTA`, “fitted relative affinity” read 4.33 z-score.
Under “fitted relative affinity”, `CTTTCTCTGCTCTTTTCAACAGTGCTA` is recorded as 2.02 z-score.
`TTAGGTTTCCGTATCGGTTAGTGCTAG`: “fitted relative affinity” 2.67 z-score.
Under “fitted relative affinity”, `ATTTGTTTCCATTTTCTGAAGTGCTAG` is recorded as 4.72 z-score.
For `GGCGGTCTCGGACTGGGGACGTGCTAG`, “fitted relative affinity” read -1.12 z-score.
Under “fitted relative affinity”, `GACGGACTGGGACTGGAGACGTGCTAG` is recorded as -0.671 z-score.
`TTAGAGATCAGACTGGATTAGTGCTAG`: “fitted relative affinity” -0.941 z-score.
`ACATTCCATGAGCCCACTGGGTGCTAG`: “fitted relative affinity” 0.795 z-score.
`GACGATATCAGCCTCGAGACGTGCTAG`: “fitted relative affinity” 0.431 z-score.
`GACGGTCTCGGTCTCGGGGCGTGCTAG` — result for “fitted relative affinity”: -0.294 z-score.
`GAAGGACTGGGGTTTCGGGACGTGCTA` — result for “fitted relative affinity”: 0.786 z-score.
Under “fitted relative affinity”, `GACGGTCTCGGACTGGGGCCGTGCTAG` is recorded as -0.766 z-score.
`TTAGATTTCGGATATCGATTAGTGCTA` — result for “fitted relative affinity”: 1.41 z-score.
`GACGGACTTGGTCTCGGGACGTGCTAG`: “fitted relative affinity” -0.498 z-score.
Under “fitted relative affinity”, `TCACTTTCCTTTATGTCACTGTGCTAG` is recorded as 5.66 z-score.

Repeated from above (block 5):
`ACATTCCATGAGCCCACTGGGTGCTAG`: “fitted relative affinity” 0.795 z-score.
`GACGATATCAGCCTCGAGACGTGCTAG`: “fitted relative affinity” 0.431 z-score.
`GACGGTCTCGGTCTCGGGGCGTGCTAG` — result for “fitted relative affinity”: -0.294 z-score.
`GAAGGACTGGGGTTTCGGGACGTGCTA` — result for “fitted relative affinity”: 0.786 z-score.
Under “fitted relative affinity”, `GACGGTCTCGGACTGGGGCCGTGCTAG` is recorded as -0.766 z-score.
`TTAGATTTCGGATATCGATTAGTGCTA` — result for “fitted relative affinity”: 1.41 z-score.
`GACGGACTTGGTCTCGGGACGTGCTAG`: “fitted relative affinity” -0.498 z-score.
